{"data": "Published values from different studies", "note": "Compare with care: the assays were run in different laboratories. ± gives the spread as reported."}
{"Structure (SMILES)": "C[n+]1cc(NC(=O)c2ccc3ccc4ccc(C(=O)Nc5cc6ccccc6[n+](C)c5)nc4c3n2)cc2ccccc21", "target": "human telomeric G-quadruplex DNA", "assay": "UV melting", "setting": "3 µM, 100 mM potassium, with: DNA 3 µM", "quantity": "delta Tm", "result": "3.2 °C"}
{"Structure (SMILES)": "c1ccc(-c2n[nH]cc2-c2ccnc3ccccc23)nc1", "target": "orf19.6492 Candida albicans", "assay": "kinase binding, MIB/MS competition", "test system": "Candida albicans lysate", "setting": "1 µM", "how to read": "relative to: DMSO", "quantity": "log2 fold change", "result": 0.02}
{"Structure (SMILES)": "Fc1ccc(Nc2nc(NC3CCCCC3)c3cc(C(F)(F)F)ccc3n2)cc1F", "target": "β2AR/β1AR ICL1 chimera", "assay": "β-arrestin2 recruitment, antagonist, BRET", "setting": "with: isoprenaline 1 µM", "quantity": "pIC50", "result": 6.2}
{"Structure (SMILES)": "C=CC(=O)Nc1cccc(Cn2ncc3cnc(Nc4cnn(CCOC)c4)nc32)c1", "target": "CDK5 human", "assay": "binding, KINOMEscan", "setting": "100 nM", "how to read": "lower = stronger binding", "quantity": "percent of control", "result": "97%"}
{"Structure (SMILES)": "Nc1ncc(-c2cc(-c3cnn(CC(F)(F)F)c3)ncc2F)nc1C(=O)NC1CNCC(F)C1 (centres unmarked)", "target": "RIPK1", "assay": "KINOMEscan", "setting": "1 µM", "how to read": "relative to: DMSO control", "quantity": "remaining binding", "result": "100%"}
{"Structure (SMILES)": "C=CC(=O)N1[C@H](c2ccc3c(c2)OCO3)c2[nH]c3ccccc3c2C[C@@H]1C(=O)N1CCN(C)CC1", "target": "human cyclin E1 N112C-3xFLAG:CDK2", "assay": "co-IP with TMT proteomics, item: ATAD3A", "setting": "concentration not given, Q9NVI7", "how to read": "relative to: wild type DMSO", "quantity": "relative co-enrichment", "result": "117%"}
{"Structure (SMILES)": "Nc1nnc(-c2ccccc2O)cc1N1CC2CCC(C1)N2c1ccnc(C#CCCN2CCCCCC2)c1", "target": "FBXO22 Cys117", "assay": "peptide mapping mass spectrometry", "setting": "50 µM, 4 h, with: SMARCA2", "quantity": "cysteine modification", "result": "9.28%"}
{"Structure (SMILES)": "Cc1ccc(S(=O)(=O)N/N=C/c2ccsc2B(O)O)cc1", "target": "human pancreatic trypsin", "assay": "enzyme activity, inhibitor", "quantity": "IC50", "result": "> 100000 nM"}
{"Structure (SMILES)": "Fc1ccc(Nc2nc(NC3CCCCC3)c3ccccc3n2)cc1F", "target": "β2AR/β1AR ICL1 chimera", "assay": "β-arrestin2 recruitment, antagonist, BRET", "setting": "with: isoprenaline 1 µM", "quantity": "pIC50", "result": 5.7}
{"Structure (SMILES)": "CC[C@H](C)[C@H](NC(=O)[C@@H]1CCCN1C(=O)[C@@H](NC(=O)[C@H](C)N)C(C)C)C(=O)N[C@@H](C)C(=O)N[C@@H](CCC(N)=O)C(=O)N[C@@H](CCCCN)C(=O)N[C@@H](CO)C(=O)N[C@@H](CCC(=O)O)C(=O)N1CCC[C@H]1C(=O)N[C@@H](Cc1ccccc1)C(=O)N[C@@H](CCCCN)C(=O)N[C@@H](CCCCN)C(=O)N[C@@H](CCCCN)C(=O)N[C@@H](CCCCNC(=O)CCCCCNC(=S)Nc1ccc2c(c1)C(=O)OC21c2ccc(O)cc2Oc2cc(O)ccc21)C(N)=O", "target": "XIAP (human)", "assay": "DIABLO peptide pull-down", "setting": "concentration not given, 10-fold competition", "how to read": "relative to: empty beads", "quantity": "log2 fold change", "result": 10.9}
{"Structure (SMILES)": "CC1(C)OCCc2cc(C(=O)N3CCC(c4nc(-c5ccccc5)n[nH]4)CC3)ccc21", "target": "FSP1, ancestral", "assay": "resazurin reduction, inhibitor", "setting": "pH 7.2, with: NADH, resazurin", "quantity": "IC50", "result": "382 ± 70 nM"}
{"note": "Some of these lines once more:"}
{"Structure (SMILES)": "CC1(C)OCCc2cc(C(=O)N3CCC(c4nc(-c5ccccc5)n[nH]4)CC3)ccc21", "target": "FSP1, ancestral", "assay": "resazurin reduction, inhibitor", "setting": "pH 7.2, with: NADH, resazurin", "quantity": "IC50", "result": "382 ± 70 nM"}
